# Results gathered from unrelated publications.
# ± gives the spread as reported.
# UniProt Q9H2G2, sequence (whole entry, looked up): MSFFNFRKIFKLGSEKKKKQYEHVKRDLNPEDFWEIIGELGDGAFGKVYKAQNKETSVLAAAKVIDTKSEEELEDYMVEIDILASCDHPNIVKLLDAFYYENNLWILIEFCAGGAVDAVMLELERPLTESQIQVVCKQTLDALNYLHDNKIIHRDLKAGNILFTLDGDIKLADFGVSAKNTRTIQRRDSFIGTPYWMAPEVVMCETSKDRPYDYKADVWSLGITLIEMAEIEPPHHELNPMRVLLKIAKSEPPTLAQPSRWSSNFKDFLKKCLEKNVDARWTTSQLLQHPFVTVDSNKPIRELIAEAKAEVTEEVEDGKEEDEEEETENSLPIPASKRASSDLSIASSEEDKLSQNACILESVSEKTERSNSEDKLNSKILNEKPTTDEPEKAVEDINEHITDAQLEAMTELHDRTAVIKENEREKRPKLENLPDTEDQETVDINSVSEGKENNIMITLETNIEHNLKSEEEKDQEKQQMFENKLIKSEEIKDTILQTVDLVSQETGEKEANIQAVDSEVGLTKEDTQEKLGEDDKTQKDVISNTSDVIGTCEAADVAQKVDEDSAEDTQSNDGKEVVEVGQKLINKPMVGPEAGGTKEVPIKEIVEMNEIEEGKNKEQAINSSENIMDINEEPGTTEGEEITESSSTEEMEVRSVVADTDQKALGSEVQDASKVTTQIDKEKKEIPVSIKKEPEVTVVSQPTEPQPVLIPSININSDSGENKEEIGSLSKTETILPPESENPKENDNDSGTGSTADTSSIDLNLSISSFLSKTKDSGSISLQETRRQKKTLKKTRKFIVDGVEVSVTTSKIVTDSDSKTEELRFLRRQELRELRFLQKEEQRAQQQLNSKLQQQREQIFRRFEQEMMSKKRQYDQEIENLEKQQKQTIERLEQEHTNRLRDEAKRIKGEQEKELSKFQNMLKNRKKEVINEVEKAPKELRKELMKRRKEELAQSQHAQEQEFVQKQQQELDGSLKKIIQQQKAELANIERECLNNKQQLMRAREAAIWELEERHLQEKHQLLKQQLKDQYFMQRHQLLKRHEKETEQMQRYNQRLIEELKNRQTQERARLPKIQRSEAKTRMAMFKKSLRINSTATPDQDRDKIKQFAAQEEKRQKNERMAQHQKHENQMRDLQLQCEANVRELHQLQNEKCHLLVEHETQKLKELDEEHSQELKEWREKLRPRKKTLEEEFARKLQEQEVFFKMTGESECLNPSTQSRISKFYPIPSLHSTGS
# UniProt P02554, sequence (whole entry, looked up): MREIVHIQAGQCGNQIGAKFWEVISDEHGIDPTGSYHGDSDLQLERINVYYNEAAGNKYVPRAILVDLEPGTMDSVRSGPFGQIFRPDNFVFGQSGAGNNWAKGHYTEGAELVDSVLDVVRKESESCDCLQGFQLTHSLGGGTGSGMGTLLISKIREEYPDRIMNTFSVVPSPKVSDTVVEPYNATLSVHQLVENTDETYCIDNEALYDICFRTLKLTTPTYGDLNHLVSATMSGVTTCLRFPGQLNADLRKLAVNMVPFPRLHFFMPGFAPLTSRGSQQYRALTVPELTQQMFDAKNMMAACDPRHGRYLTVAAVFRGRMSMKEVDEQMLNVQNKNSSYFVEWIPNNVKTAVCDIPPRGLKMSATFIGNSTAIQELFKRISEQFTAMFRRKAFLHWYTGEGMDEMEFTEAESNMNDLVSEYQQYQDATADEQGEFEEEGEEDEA
# UniProt P34998, sequence (whole entry, looked up): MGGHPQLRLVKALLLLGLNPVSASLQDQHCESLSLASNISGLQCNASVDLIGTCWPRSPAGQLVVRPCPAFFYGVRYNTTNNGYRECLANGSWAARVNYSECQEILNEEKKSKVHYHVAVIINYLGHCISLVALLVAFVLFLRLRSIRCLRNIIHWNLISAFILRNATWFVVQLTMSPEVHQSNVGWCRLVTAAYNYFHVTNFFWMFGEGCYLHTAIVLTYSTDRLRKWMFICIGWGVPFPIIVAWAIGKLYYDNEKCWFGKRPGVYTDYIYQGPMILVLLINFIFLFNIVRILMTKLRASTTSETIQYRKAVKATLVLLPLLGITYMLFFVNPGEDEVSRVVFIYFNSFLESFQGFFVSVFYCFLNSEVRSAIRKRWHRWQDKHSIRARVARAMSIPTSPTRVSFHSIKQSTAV
# UniProt Q9NZJ5, sequence (whole entry, looked up): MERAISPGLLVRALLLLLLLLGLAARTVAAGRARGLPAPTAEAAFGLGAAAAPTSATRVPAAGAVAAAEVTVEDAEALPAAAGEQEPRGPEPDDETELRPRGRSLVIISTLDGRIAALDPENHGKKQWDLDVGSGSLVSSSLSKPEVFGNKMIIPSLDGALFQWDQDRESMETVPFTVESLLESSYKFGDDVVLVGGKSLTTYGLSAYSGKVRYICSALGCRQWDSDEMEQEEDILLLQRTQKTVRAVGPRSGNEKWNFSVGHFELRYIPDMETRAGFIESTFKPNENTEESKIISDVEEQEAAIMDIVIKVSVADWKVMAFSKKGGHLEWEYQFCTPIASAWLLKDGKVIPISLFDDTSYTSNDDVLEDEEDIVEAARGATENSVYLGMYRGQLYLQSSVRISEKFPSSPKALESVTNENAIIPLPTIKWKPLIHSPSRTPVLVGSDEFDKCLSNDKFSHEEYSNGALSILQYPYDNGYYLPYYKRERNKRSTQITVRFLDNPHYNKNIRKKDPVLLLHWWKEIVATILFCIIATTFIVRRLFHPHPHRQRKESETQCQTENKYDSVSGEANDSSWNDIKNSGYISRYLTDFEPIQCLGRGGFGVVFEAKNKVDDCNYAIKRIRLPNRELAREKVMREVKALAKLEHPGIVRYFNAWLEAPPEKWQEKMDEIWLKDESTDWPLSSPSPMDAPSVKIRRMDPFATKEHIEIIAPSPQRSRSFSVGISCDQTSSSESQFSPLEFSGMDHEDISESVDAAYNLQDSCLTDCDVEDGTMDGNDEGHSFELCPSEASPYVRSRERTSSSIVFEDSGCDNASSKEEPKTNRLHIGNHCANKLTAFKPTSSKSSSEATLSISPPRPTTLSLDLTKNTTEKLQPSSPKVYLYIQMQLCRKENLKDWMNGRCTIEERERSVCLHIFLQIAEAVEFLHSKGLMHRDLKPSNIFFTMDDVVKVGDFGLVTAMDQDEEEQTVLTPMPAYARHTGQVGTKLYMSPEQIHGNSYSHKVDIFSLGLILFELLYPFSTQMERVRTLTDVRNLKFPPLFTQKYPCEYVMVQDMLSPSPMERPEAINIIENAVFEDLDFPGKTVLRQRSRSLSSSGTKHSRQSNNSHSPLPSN
# UniProt P02550, sequence (whole entry, looked up): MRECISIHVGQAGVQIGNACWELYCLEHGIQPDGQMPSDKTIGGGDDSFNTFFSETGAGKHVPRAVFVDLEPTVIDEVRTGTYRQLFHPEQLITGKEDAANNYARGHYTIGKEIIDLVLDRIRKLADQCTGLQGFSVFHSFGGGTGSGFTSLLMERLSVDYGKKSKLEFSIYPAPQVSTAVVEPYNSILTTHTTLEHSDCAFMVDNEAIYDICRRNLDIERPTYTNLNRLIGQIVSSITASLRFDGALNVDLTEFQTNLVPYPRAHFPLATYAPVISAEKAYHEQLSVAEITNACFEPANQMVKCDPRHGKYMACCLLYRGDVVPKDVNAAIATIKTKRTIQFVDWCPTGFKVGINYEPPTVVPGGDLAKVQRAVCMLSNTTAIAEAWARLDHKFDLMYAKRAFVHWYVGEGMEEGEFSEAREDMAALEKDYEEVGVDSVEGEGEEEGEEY
# UniProt P43681, sequence (whole entry, looked up): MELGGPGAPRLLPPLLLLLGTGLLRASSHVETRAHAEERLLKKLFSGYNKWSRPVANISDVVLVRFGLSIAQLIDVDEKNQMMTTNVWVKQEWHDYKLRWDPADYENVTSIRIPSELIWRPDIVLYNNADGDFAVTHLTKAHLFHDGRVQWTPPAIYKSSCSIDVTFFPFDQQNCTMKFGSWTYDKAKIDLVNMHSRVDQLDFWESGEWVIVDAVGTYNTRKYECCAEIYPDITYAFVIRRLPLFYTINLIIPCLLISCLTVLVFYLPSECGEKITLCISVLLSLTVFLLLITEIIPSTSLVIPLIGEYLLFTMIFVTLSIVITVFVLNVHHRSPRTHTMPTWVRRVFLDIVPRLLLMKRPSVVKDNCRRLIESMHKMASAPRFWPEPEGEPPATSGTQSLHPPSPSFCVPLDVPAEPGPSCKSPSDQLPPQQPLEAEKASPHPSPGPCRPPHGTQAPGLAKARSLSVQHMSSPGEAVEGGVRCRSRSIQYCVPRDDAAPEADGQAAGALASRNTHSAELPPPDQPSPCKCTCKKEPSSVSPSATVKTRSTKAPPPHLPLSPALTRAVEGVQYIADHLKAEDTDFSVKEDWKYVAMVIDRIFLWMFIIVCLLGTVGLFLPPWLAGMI
# UniProt P31751, sequence (whole entry, looked up): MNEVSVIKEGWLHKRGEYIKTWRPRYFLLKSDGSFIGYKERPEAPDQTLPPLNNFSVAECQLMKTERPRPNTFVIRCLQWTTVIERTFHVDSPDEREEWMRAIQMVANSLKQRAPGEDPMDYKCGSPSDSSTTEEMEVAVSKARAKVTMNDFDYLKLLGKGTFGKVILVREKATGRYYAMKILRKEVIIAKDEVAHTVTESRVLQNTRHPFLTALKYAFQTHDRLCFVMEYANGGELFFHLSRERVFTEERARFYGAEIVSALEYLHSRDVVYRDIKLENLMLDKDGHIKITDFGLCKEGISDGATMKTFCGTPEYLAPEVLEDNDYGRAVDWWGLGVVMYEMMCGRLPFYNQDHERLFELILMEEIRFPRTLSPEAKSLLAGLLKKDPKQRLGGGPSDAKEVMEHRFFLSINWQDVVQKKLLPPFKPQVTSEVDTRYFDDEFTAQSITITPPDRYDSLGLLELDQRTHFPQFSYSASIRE
SMILES,target or system,assay,test system,conditions,quantity,value
CCN(CC)CCOc1ccc(-c2nnn(Cc3ccc(OC)cc3)c2N)cc1,"Androgen receptor (AR, Homo sapiens, UniProt P10275)",radioligand binding,LNCaP,"10 µM, together with: 10000 nM radioligand",inhibition,-1.23%
CCOC(=O)[C@](CC)(CCCSCCOCCOCCNC(=O)c1ccc(-c2c3ccc(=N)c(S(=O)(=O)O)c-3oc3c(S(=O)(=O)O)c(N)ccc23)c(C(=O)O)c1)NC(=O)c1ccc(C2CC2)c(Cc2ccc(F)cc2)n1,"Neuronal acetylcholine receptor; alpha4/beta2 (Homo sapiens, UniProt P17787+P43681)","ligand displacement, radioligand",,10 µM,inhibition,-7%
O=C(CN1CN(c2ccccc2)C2(CCN(C(=O)c3cnc4[nH]ncc4c3)CC2)C1=O)NCC(F)(F)F,"Mitogen-activated protein kinase kinase kinase 11 (MAP3K11, Homo sapiens, UniProt Q16584)",inhibitor,,concentration not given,inhibition,< 50%
N#Cc1ccc(N2N=C3c4ccc(C(=O)O)cc4CCC3C2C2CCCC2)cc1Cl (centres unmarked),"Histone-lysine N-methyltransferase EZH2 (EZH2, Homo sapiens, UniProt Q15910)","enzyme activity, inhibitor",,10 µM,inhibition,12%
CN(C)[C@H]1C[C@@]23CC[C@@]4(O2)C(=CC[C@]2(C)[C@@H](c5ccc6ccncc6c5)CC[C@H]24)C=C3[C@@H](O)[C@@H]1O,"Eukaryotic translation initiation factor 2-alpha kinase 3 (EIF2AK3, Homo sapiens, UniProt Q9NZJ5)","ATP probe labelling, inhibitor, KiNativ profiling",,0.1 µM,inhibition,-2.1%
C=CC(=O)Nc1cc(-c2nn(C3CCC(N4CCN(C(C)=O)CC4)CC3)c3ncnc(N)c23)ccc1Oc1ccccc1 (centres unmarked),"STE20-like serine/threonine-protein kinase (SLK, Homo sapiens, UniProt Q9H2G2)","inhibitor, KiNativ profiling",biochemical,2 µM,inhibition,3.4%
O=C(O)c1ccccc1/C=N/Nc1nc(-c2ccccc2Cl)cs1,"RAC-beta serine/threonine-protein kinase (AKT2, Homo sapiens, UniProt P31751)","enzyme activity, inhibitor",,1 µM,inhibition,-0.65%
CC[C@@]1(C)Oc2cc(ccc2O)[C@@H](O)[C@H](NC)C(=O)NCC(=O)N[C@@H](C(C)C)C(=O)N[C@@H]1C(=O)NCC(=O)O,"Tubulin alpha-1A/beta chain (Sus scrofa, UniProt P02550+P02554)",tubulin polymerization,,concentration not given,inhibition,no inhibition
COc1ccc(F)cc1S(=O)(=O)Nc1cnc2c(c1)C(=O)NCCO2,sodium channel site 2,radioligand binding,,10 µM,inhibition,10%
C[C@H](NCc1ccc(-c2ccc(C(F)(F)F)cc2)cc1)C(N)=O,"Serine/threonine-protein kinase ULK2 (ULK2, Homo sapiens, UniProt Q8IYT8)","cell-free assay, competition with immobilised ligand",,1 µM,inhibition,0%
N[C@H](C(=O)N1CCCC1)C1CCN(c2nccc3c(-c4ncc(Cl)cc4Cl)cccc23)CC1,"Corticotropin-releasing factor receptor 1 (CRHR1, Homo sapiens, UniProt P34998)","functional response, antagonist",,10 µM,inhibition,1%
CS(C)(=O)=Nc1ccc(-c2ccc(-c3nc4cc(O[C@@H]5CO[C@H]6[C@@H]5OC[C@H]6O)[nH]c4cc3F)cc2)cc1,"Phosphatidylinositol 4,5-bisphosphate 3-kinase catalytic subunit beta isoform, with p85 alpha (PIK3CB, Homo sapiens, UniProt P42338)",kinase activity,,10 µM,inhibition,-2%
CC(C)[C@H]1NC(=O)C[C@H]2/C=C/CCSSC[C@@H](NC1=O)C(=O)N[C@H](Cc1cccc3ccccc13)C(=O)NCC(=O)O2,"Tyrosine-protein kinase Fer (FER, Homo sapiens, UniProt P16591)","enzyme activity, inhibitor",,10 µM,inhibition,3.5%
O=C1NC2(CC2)COc2ncc(F)cc2[C@H]2COCCN2c2ccn3ncc1c3n2,,,"Sprague-Dawley rat, male, spleen","oral, 5 mg/kg/day, 4 weeks, end of treatment",organ-to-body weight ratio,0.27 ± 0.028%

# For quick reference, copied from above:
SMILES,target or system,assay,test system,conditions,quantity,value
COc1ccc(F)cc1S(=O)(=O)Nc1cnc2c(c1)C(=O)NCCO2,sodium channel site 2,radioligand binding,,10 µM,inhibition,10%
C[C@H](NCc1ccc(-c2ccc(C(F)(F)F)cc2)cc1)C(N)=O,"Serine/threonine-protein kinase ULK2 (ULK2, Homo sapiens, UniProt Q8IYT8)","cell-free assay, competition with immobilised ligand",,1 µM,inhibition,0%
